Experimental data collected from several papers.
Protocols differ between the studies behind these lines.

SMILES | cell line | read-out | technique | time | baseline | selectivity ratio
Cc1ccc(C(C)C)cc1.[Cl][Au].[Cl][Ru][Cl].c1ccc(P(CP(c2ccccc2)c2ccccc2)c2ccccc2)cc1 | L929 and HCT-116 | – | trypan blue exclusion | – | IC50 L929 over IC50 HCT-116 | 7.8
CNC(=O)c1cc(Oc2ccc(NC(=O)c3ccc(-c4cccc(COC(=O)CCC(=O)OC5OC6OC7(C)CCC8C(C)CCC(C5C)C68OO7)c4)cn3)cc2)ccn1 (stereo not drawn) | HepG2 and LO2 | cell viability | MTT | 72 h | IC50 LO2 over IC50 HepG2 | > 11.8
CCCCN[C@H]1C=C[C@]2(O[C@H]([C@@H](CC)C(=O)[C@@H](C)[C@@H](O)[C@H](C)[C@@H]3O[C@@H]([C@@H](CC)C(=O)O)CC[C@@H]3C)[C@@H](C)C[C@H]2C)O[C@@]12CC[C@@](C)([C@H]1CC[C@](O)(CC)[C@H](C)O1)O2 | HMLER CD24low/CD44high | cell viability | CellTiter-Blue | 72 h | IC50 HMLER CD24high/CD44low over CD24low/CD44high | 15.2
CNC(=O)c1cc(Oc2ccc(NC(=O)c3cc(-c4ccc(COC(=O)CCC(=O)OC5OC6OC7(C)CCC8C(C)CCC(C5C)C68OO7)cc4)ccn3)cc2)ccn1 (stereo not drawn) | HepG2 and LO2 | cell viability | MTT | 72 h | IC50 LO2 over IC50 HepG2 | 2.5
C#CCN[C@@H]1C=C[C@]2(O[C@H]([C@@H](CC)C(=O)[C@@H](C)[C@@H](O)[C@H](C)[C@@H]3O[C@@H]([C@@H](CC)C(=O)O)CC[C@@H]3C)[C@@H](C)C[C@H]2C)O[C@@]12CC[C@@](C)([C@H]1CC[C@](O)(CC)[C@H](C)O1)O2 | HMLER | cell proliferation | – | – | IC50 CD24high/CD44low over IC50 CD24low/CD44high | 13.5
CNC(=O)c1cc(Oc2ccc(NC(=O)c3cc(-c4ccc(OC(=O)CCC(=O)OC5OC6OC7(C)CCC8C(C)CCC(C5C)C68OO7)cc4)ccn3)cc2)ccn1 (stereo not drawn) | HepG2 and LO2 | cell viability | MTT | 72 h | IC50 LO2 over IC50 HepG2 | 2.5
CCCCCCCCCCCCN[C@H]1C=C[C@]2(O[C@H]([C@@H](CC)C(=O)[C@@H](C)[C@@H](O)[C@H](C)[C@@H]3O[C@@H]([C@@H](CC)C(=O)O)CC[C@@H]3C)[C@@H](C)C[C@H]2C)O[C@@]12CC[C@@](C)([C@H]1CC[C@](O)(CC)[C@H](C)O1)O2 | HMLER CD24low/CD44high | cell viability | CellTiter-Blue | 72 h | IC50 HMLER CD24high/CD44low over CD24low/CD44high | 4.1
C[C@@H](N)[C@H](O)CCCCCCCC(=O)CCCCCCCCCCCCCC[C@@H](O[C@@H]1O[C@H](CO)[C@@H](O)[C@H](O)[C@H]1O)[C@@H](N)CO | HCC70 | – | – | – | IC50 MCF-12A over IC50 HCC70 | 2.3
CC[C@@H](C(=O)[C@@H](C)[C@@H](O)[C@H](C)[C@@H]1O[C@@H]([C@@H](CC)C(=O)O)CC[C@@H]1C)[C@H]1O[C@]2(C=C[C@H](NCc3ccc(O)cc3)[C@]3(CC[C@@](C)([C@H]4CC[C@](O)(CC)[C@H](C)O4)O3)O2)[C@H](C)C[C@@H]1C | HMLER CD24low/CD44high | cell viability | CellTiter-Blue | 72 h | IC50 HMLER CD24high/CD44low over CD24low/CD44high | 12.4
CC(C)[C@@H]1NC(=O)[C@H](C)OC(=O)[C@@H](C(C)C)NC(=O)[C@@H](C(C)C)OC(=O)[C@H](C(C)C)NC(=O)[C@H](C)OC(=O)[C@@H](C(C)C)NC(=O)[C@@H](C(C)C)OC(=O)[C@H](C(C)C)NC(=O)[C@H](C)OC(=O)[C@@H](C(C)C)NC(=O)[C@H](C)OC1=O | C6 | cell growth | SRB | – | IC50 in HA over IC50 in C6 | 35
CCN[C@H]1C=C[C@]2(O[C@H]([C@@H](CC)C(=O)[C@@H](C)[C@@H](O)[C@H](C)[C@@H]3O[C@@H]([C@@H](CC)C(=O)O)CC[C@@H]3C)[C@@H](C)C[C@H]2C)O[C@@]12CC[C@@](C)([C@H]1CC[C@](O)(CC)[C@H](C)O1)O2 | HMLER CD24low/CD44high | cell viability | CellTiter-Blue | 72 h | IC50 HMLER CD24high/CD44low over CD24low/CD44high | 6.1
CNC(=O)c1cc(Oc2ccc(NC(=O)c3cc(-c4ccccc4OC(=O)CCC(=O)OC4OC5OC6(C)CCC7C(C)CCC(C4C)C57OO6)ccn3)cc2)ccn1 (stereo not drawn) | HepG2 and LO2 | cell viability | MTT | 72 h | IC50 LO2 over IC50 HepG2 | 5.9
